# Assay results gathered from unrelated publications.
# Numbered parts are unrelated; each lists some results of a single study. Positions count from the first letter of the parent shown.
# Chain of UniProt O00444 (whole entry, looked up): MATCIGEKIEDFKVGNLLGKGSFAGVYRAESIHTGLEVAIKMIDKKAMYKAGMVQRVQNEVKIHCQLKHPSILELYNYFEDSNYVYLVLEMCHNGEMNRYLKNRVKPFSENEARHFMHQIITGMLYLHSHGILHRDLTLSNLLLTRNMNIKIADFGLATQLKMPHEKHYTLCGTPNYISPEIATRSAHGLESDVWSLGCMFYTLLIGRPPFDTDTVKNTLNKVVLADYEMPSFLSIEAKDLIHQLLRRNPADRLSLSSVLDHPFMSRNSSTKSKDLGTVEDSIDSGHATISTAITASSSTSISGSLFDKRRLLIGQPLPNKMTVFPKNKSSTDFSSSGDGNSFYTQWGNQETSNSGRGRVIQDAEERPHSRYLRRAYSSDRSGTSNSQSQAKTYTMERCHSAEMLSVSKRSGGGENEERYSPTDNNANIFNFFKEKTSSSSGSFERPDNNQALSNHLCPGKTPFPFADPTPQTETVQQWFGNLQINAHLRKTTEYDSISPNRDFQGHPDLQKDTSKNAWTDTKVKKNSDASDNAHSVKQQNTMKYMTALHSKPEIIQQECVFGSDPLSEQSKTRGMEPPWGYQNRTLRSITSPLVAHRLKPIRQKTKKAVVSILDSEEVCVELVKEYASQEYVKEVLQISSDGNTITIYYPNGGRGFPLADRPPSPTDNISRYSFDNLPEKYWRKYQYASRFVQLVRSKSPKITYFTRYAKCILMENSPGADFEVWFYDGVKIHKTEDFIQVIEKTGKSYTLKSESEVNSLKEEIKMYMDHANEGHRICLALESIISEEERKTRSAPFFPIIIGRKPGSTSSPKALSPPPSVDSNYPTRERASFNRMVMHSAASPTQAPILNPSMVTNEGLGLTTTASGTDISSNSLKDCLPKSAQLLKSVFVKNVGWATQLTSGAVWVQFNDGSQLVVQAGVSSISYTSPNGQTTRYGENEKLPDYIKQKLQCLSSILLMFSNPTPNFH

# Study 1
# Target: RING finger protein unkempt homolog, zinc fingers 1-6, SBP tag (UNK, Homo sapiens, UniProt Q9C0B0, residues 30-357)
# Chain of UniProt Q9C0B0 (30-357, looked up): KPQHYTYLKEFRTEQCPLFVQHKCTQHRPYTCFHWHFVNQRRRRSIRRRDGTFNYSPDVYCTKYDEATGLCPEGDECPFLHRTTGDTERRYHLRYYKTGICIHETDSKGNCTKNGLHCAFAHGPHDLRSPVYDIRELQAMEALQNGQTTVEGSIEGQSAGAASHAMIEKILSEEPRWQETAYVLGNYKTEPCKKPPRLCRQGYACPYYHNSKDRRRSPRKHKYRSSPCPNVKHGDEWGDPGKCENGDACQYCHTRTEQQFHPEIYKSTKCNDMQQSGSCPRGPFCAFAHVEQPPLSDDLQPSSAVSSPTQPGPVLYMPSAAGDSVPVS
# Technique: RNA Bind-n-Seq
# Molecule type: RNA
# Matrix: in vitro
# Concentration: 100 nM
# Setting: RNA with constant flanks, vertebrate orthologous sites, ends assumed
# Reference: input RNA pool
# Reading: higher = stronger binding
Sequence,bound/input enrichment [ratio]
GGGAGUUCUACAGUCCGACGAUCGGACUGGGGGGUGGUGGGUGGGAAGAAGAUGUAUGGAUGUUAUUGGCAUUUUUAAGUGUUCAGAGGUGGGUUUUUUUUCCCCCCUUUCUGUUUUGUUUUUGUUUUUUUUUCCCUUCAAUUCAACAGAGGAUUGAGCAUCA,0.731
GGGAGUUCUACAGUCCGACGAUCUUUUUUAAAGUUUUUUUAAUUUAAUUUUUUCCUUUUGGGGGUAAAGUUUGCUCUACCAAAUAGUGAUCGUAACAAAUUGAUCUGUUUUGGAUGUUGCUAUAGUGACAUGCAGUUAUACAUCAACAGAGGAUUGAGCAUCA,0.811
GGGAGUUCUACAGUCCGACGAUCCCAAAAUUUUAACCAAGAAUCUGAAGGUAGAAAUACAGGACCAUGGUUAUCUUCCUCACUUAGAAAUAGAUGCACACCUUUGUUCUCUAGAAGGAGGCGAGAGGGACGAGAUGAAUCUUCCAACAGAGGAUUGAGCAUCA,0.88
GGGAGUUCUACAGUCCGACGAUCAAUGACUUUCUGCUCCAUUAAAAAAAUGAAAAAUAGUCCCCAAAAUAUAAAACUUCUAAAUAGCUAUUUUUGAAAUUAAAUGUUUAGAUUUUGUAAAUCAGCUGUUGCCACUACACAACUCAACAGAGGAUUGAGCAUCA,0.911
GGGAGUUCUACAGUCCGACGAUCCUCUAUGGGCCUCGCAGAGUUGAAAUAAUGGAAGAGGAAACUGAACAGUAAUCUUCAUUUUAGUAUUUAUGCUUAGGUGUGAAAUAAAUGUUACUCAUUGAUCAUUUCUGUAAUCCAGAGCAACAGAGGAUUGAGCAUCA,0.467
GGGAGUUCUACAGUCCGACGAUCUGAUUUUCAAUCUCUUCUCCCUUAUCCUGAUUUUAAAAGCCCUUCUUCUUCUUUUUUUAGGCAUAUGUAGUAACAUGAGCAGAAAGAUUUAAUUUGGGCAACUUUGAUUCUUAAAAAAGACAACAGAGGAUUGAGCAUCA,0.333
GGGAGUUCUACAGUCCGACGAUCUUCAGGCACAACUGACUGGUGCACAGCAUUCCUUACAUAGUUAUCUAGCAAAUACAGAUGUGGUUAAUUUUCAGGAAACAACCAGGCAGUCAUCUUUACCUUGUAGCCCAAUCGGAGAUUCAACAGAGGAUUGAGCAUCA,0.91
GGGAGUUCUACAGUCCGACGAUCACCAGUUCAUGGAUUCCGAACUGGAUUCAGCAAUGUUCCAGGAAGGUAUGGAACGAACACUCAGGGACAGUUUGGUCAGUUCAGACCAUAGUGUACUAUAUUUAGAGCCAAUGGCAUAACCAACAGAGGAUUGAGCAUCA,0.342

# Study 2
# Target: CCNB2, cyclin fold, Cln2 fusion (human)
# Technique: yeast growth competition, sequencing
# Matrix: yeast
# Setting: weak parent motif
# Reference: not given
# Reading: higher = stronger binding
# Starting sequence: CDKN1A docking peptide (human); SKACRRLFGPVDS
Change,normalised enrichment score
G9A,0.593
L7R,0.401
R6W,0.57
C4K,0.163
R6I,-0.196
R5D,-0.632
R6G,0.215
K2E,0.0514

# Study 3
# Target: RNA binding protein fox-1 homolog 2, RRM domain, GST-SBP tag (RBFOX2, Homo sapiens, UniProt O43251-10, residues 100-194)
# Technique: RNA Bind-n-Seq
# Molecule type: RNA
# Matrix: in vitro
# Concentration: 365 nM
# Setting: natural RNA segment, single round, ends assumed
# Reference: no-protein control
# Reading: higher = stronger binding
# Residues (chain): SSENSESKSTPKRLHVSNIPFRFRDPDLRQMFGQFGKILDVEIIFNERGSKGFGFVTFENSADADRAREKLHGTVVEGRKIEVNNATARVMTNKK
Sequence,RBNS enrichment (R)
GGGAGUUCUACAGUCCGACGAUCAAACUACUGUGCCUUAACGUGUUUCUUAAACUUUUGUAGUAAAUGAACAUUUGAAAUCCAUUUUGAUAAACCUGCUGUUAAUGUUUUUUCCCCCCUUGUGAAUGUUUUCUUGGAAUUCUCGGGUGCCAA,4.1
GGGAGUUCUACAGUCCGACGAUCGACCGAGAGUCUAUAGUGUGAACCUGGCCACCCGUCCGGCCAGGACGUGCCCUGUUGUAUCCUGACAAACCUUAAGCAGUUGAAACCAGUGUCGGCUAAGGCCUUCCUAGUGGAAUUCUCGGGUGCCAA,0.27
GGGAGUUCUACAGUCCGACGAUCGAGCUCGCGGGUGCGCACGGGCCGCAGCAUCCGUGGCUUCUGCCUCCCCCCGCACUGCAGCCGCGGGGAGCGCCGCGCCAUCGAGAAGCUCGCGGUGGAAGCCCUGUCCAUGGAAUUCUCGGGUGCCAA,1.69
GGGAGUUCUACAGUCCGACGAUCCACCAAACUUAAAUAGCAGGAGGAGACUGGCAGGUGAGUGUGUCCAAGAAAUCCACAUUUGUGCUGCAGAUACUGGAAACCAAACUGCAGCUGCAGCCAUUGGAAGAAACUGGAAUUCUCGGGUGCCAA,0.356
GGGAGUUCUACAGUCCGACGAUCUGAGUCCUGUUCUUCCUAUUUCUUUCAGCAGAAAUGAAAUCCCAGGUAAGUAUAAGUAUUCAAGUAUUUGAUCAGUAAGUCACAGUUAUCUCCAGUGCAUUAAAUAACCUUGGAAUUCUCGGGUGCCAA,1.62
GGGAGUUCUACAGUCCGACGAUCUGCAGCUGGGCCCAGAACACCCAUGAUGAGGUUCACUGCGUCUACCCUGCACCUCGCACAGAACCAAGAGCCACCAGCCUCCUGAUGGCAGGGGCCUAGCCCUGGGCAUAUGGAAUUCUCGGGUGCCAA,0.777
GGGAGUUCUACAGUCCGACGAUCUAGAACCGCAAUGCAGGCUUGGGGAAUUGGCUCAGUCAGAGAAGGCCUUGCUUUGCAAGGAUGGUAAAGAGAAAGCAGACCAGCCAGAUGCAGUCAGUGGUGUAUGCUUGUGGAAUUCUCGGGUGCCAA,1.7
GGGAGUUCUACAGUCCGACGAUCCCCCCUGCUCUGCCCUCCACGGAAUUGGAUUCCAAGGGCUGUUCCAGACAACUGCCAACGUCACUGAGGGCCCUGCUCUGAAGCCCUGGGCCCUGGCUCCAUUAACCUAAUGGAAUUCUCGGGUGCCAA,0.388

# Single results of other studies
Compound,target,assay,conditions,measurement,value
Cc1c(C(=O)O)cc(-c2ccc(C3CCNCC3)cc2)c2ccc(-c3ccc(C(F)(F)F)cc3)cc12,"Serine/threonine-protein kinase PLK4 (PLK4, Homo sapiens, UniProt O00444)","binding, competition with immobilised ligand",1 µM,remaining binding,96%

# A few entries again (study 3):
Sequence,RBNS enrichment (R)
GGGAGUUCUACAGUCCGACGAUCGAGCUCGCGGGUGCGCACGGGCCGCAGCAUCCGUGGCUUCUGCCUCCCCCCGCACUGCAGCCGCGGGGAGCGCCGCGCCAUCGAGAAGCUCGCGGUGGAAGCCCUGUCCAUGGAAUUCUCGGGUGCCAA,1.69
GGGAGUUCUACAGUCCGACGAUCCACCAAACUUAAAUAGCAGGAGGAGACUGGCAGGUGAGUGUGUCCAAGAAAUCCACAUUUGUGCUGCAGAUACUGGAAACCAAACUGCAGCUGCAGCCAUUGGAAGAAACUGGAAUUCUCGGGUGCCAA,0.356
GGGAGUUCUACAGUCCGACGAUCUGAGUCCUGUUCUUCCUAUUUCUUUCAGCAGAAAUGAAAUCCCAGGUAAGUAUAAGUAUUCAAGUAUUUGAUCAGUAAGUCACAGUUAUCUCCAGUGCAUUAAAUAACCUUGGAAUUCUCGGGUGCCAA,1.62
